Assay results from different studies.
Protocols differ between the studies behind these lines. ± marks the error that the study gave.

`Cc1cc(SCc2sc(-c3cc(C(F)(F)F)cc(C(F)(F)F)c3)nc2C)ccc1OCC(=O)O` gave a CC50 of > 50 µM (HEK293T; 18 h).
The logD of `Cc1n[nH]c(C)c1CCOC(=O)c1cccc2c1oc(=O)n2C` is reported as 1.87 (pH 7.4).
For `Cc1cc(NC(=O)c2cccc(NC(=O)C3=CC(C)(C)CCC3=O)c2)ccc1Nc1nccc(-c2cccnc2)n1`, the compound remaining was 102% (rat plasma; 1 µM, 20 min).
For `Cc1cc(SCc2sc(-c3cccc(OC(F)(F)F)c3)nc2C)ccc1OCC(=O)O`, the CC50 was > 50 µM (HEK293T; 18 h).
`COC(=O)[C@@H]1C(c2nc3cc(C(F)(F)F)ccc3s2)=Cc2cc3c(cc2[C@H]1c1cc(OC)c(OC)c(OC)c1)OCO3` has a CC50 of > 100 µM (HepG2; Alamar Blue; 48 h).
With `Nc1ncc(-c2ccc3ncnc(N4CCc5cc(F)c(Cl)cc54)c3c2)cn1` the Cmax was 4290 ng/mL (CD1 mouse, plasma; intraperitoneal, 50 mg/kg).
With `COc1cc([C@@H]2c3cc4c(cc3[C@@H](CC(C)(C)O)[C@H]3COC(=O)[C@H]23)OCO4)cc(OC)c1OC` the CC50 was > 100 µM (HepG2; Alamar Blue; 48 h).
`CC(C)n1nnc(-c2cc(O)cc(Nc3ncnn4ccc(CN5CCC(N)CC5)c34)c2)n1`: “brain to plasma ratio” ~0.02 (mouse, formalin model).
The Cmax of `COc1ccc(CC(=O)OCc2ccc(-n3cccn3)cc2)cc1F` is reported as 4440 ng/mL (BALB/c mouse, plasma; intravenous, 2 mg/kg).
With `COc1cc([C@@H]2c3cc4c(cc3[C@H](C=C(C)C)[C@H]3COC(=O)[C@H]23)OCO4)cc(OC)c1OC` the CC50 was 6.4 ± 0.8 µM (mouse splenocytes uninfected; Alamar Blue; 48 h).
`COc1ccc(-c2nc(C)c(CSc3ccc(OCC(=O)O)c(C)c3)s2)cc1F` gave a CC50 of > 100 µM (HEK293T; 18 h).
The CC50 of `COc1cc([C@@H]2c3cc4c(cc3C=C(C=O)[C@H]2C(=O)OCCCCCCBr)OCO4)cc(OC)c1OC` is reported as 68.9 ± 6 µM (HepG2; Alamar Blue; 48 h).
For `Cc1cccc(-c2nc(C)c(CSc3ccc(OCC(=O)O)c(C)c3)s2)c1`, the CC50 was > 80 µM (HEK293T; 18 h).
`COC(=O)[C@@H]1C(C=Nc2cncnc2N)=Cc2cc3c(cc2[C@H]1c1cc(OC)c(OC)c(OC)c1)OCO3` gave a CC50 of > 100 µM (mouse splenocytes uninfected; Alamar Blue; 48 h).
`Cc1cc(SCc2sc(-c3cccc(C(=O)NCCCN(C)C)c3)nc2C)ccc1OCC(=O)O`: CC50 “not toxic” (HEK293T; 18 h).
`COc1cc([C@@H]2c3cc4c(cc3[C@@H](OC3CCCCC3)[C@H]3COC(=O)[C@H]23)OCO4)cc(OC)c1OC` has a CC50 of > 100 µM (HepG2; Alamar Blue; 48 h).
With `Cc1cc(SCc2sc(-c3ccc(F)c(C(F)(F)F)c3)nc2C)ccc1OCC(=O)O` the CC50 was > 50 µM (HEK293T; 18 h).
For `CCCSc1nc(N[C@@H]2C[C@H]2c2ccc(F)c(F)c2)c2nnn([C@@H]3C[C@H](O)[C@@H](O)[C@H]3O)c2n1`, the AUC was 6.9 µM·h (rat, male, plasma; oral, 20 mg/kg/day ticagrelor, day 1).

A few entries again:
`Cc1cc(SCc2sc(-c3cccc(C(=O)NCCCN(C)C)c3)nc2C)ccc1OCC(=O)O`: CC50 “not toxic” (HEK293T; 18 h).
`COC(=O)[C@@H]1C(C=Nc2cncnc2N)=Cc2cc3c(cc2[C@H]1c1cc(OC)c(OC)c(OC)c1)OCO3` gave a CC50 of > 100 µM (mouse splenocytes uninfected; Alamar Blue; 48 h).
